Published values collected from several papers.
Numbered parts are unrelated; each lists some results of a single study. Positions count from the first letter of the parent shown.

Sample 1 — target: CCNF, cyclin fold, Cln2 fusion (human); technique: yeast growth competition, sequencing; matrix: yeast; notes: strong parent motif; baseline: not given; direction: higher = stronger binding; parent: viral docking peptide; TSVRRALFTGGSD
| Substitution | normalised enrichment score |
| --- | --- |
| TSVRRALFFGGSD [T9F] | 9.25 |
| TSVRRALFMGGSD [T9M] | 8.82 |
| TSVRRALETGGSD [F8E] | 0.584 |
| TSVRRALITGGSD [F8I] | 2.04 |
| TSVRRAKFTGGSD [L7K] | 0.571 |
| TSVTRALFTGGSD [R4T] | 4.17 |
| TSVRRILFTGGSD [A6I] | 7.52 |
| TSVVRALFTGGSD [R4V] | 6.85 |
| TSVRRRLFTGGSD [A6R] | 8.69 |
| TSVRRACFTGGSD [L7C] | 0.507 |
| TSVRVALFTGGSD [R5V] | 1.27 |
| TSVRRAVFTGGSD [L7V] | 1.15 |
| TDVRRALFTGGSD [S2D] | 7.31 |
| TSVRPALFTGGSD [R5P] | -0.45 |
| TSVRRALFTGGTD [S12T] | 8.17 |
| TTVRRALFTGGSD [S2T] | 8.29 |
| TSVNRALFTGGSD [R4N] | 6.57 |
| TKVRRALFTGGSD [S2K] | 8.58 |
| TSVRRALVTGGSD [F8V] | 1.08 |
| TPVRRALFTGGSD [S2P] | 7.71 |
| TSVRRANFTGGSD [L7N] | 0.203 |
| TSVRRALFDGGSD [T9D] | 7.66 |
| TSYRRALFTGGSD [V3Y] | 5.66 |
| TSVRRALFTPGSD [G10P] | 7.93 |
| TSVRRALFNGGSD [T9N] | 8.13 |

Sample 2 — technique: EMSA with sequencing; form: double-stranded DNA, one strand shown; matrix: in vitro; tested at: 10 and 20 nM; baseline: negative control set to 0; direction: higher = stronger binding
Target: Hepatocyte nuclear factor 3-alpha (Foxa1, Mus musculus, UniProt P35582, residues 1-468, full length assumed)
Notes: whole designed probe, mean of two concentrations, ends assumed
All sequences stand within: GTGAGCGGTGCCCATTGATGGGGAAC … TTTCACTGGGATCGTGGGGAC
Target sequence (chain): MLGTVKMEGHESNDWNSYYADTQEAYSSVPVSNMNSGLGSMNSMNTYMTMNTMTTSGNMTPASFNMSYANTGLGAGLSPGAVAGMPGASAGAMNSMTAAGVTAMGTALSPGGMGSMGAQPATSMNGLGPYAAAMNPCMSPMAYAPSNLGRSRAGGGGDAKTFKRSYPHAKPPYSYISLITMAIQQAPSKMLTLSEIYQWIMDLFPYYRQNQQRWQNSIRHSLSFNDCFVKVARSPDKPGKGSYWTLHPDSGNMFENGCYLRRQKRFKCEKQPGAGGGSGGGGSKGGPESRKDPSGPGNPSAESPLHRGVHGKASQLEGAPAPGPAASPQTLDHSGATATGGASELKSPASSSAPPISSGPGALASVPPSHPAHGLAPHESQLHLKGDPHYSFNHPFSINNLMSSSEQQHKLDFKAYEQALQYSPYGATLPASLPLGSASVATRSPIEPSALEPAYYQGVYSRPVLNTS
| Oligonucleotide | normalised bound fraction [ratio] |
| --- | --- |
| AGCAAGGCTTTAAAAGTGAGGTCTTTCAGTTTAGATGCAAAAAGGGTGGTTCTGTTGAGTCAACCCAGCTAGTTTCGTAATTTTCACTACATAGTAAACACCTAGAATGAGGTAGCTGGAGTGCAAATCTAAATGGCTTGTGACAGTTAAGGAAGTACATAGGCAACAGTTACTGGTTTTCTTGATGCAGCTG | -0.00798 |
| TTTACTTGTTTCTTTACATCACAGATATTTTGTTGAAAACTATTAAGATAGTATTTCTAGAATATAATAAAACATTCAGAATAGCATTGCTAAGCAAATACACTGTGCCATGATTATGTTTTTTTGCAATGTGTATGCAATTGCTTTATTTTACATTAGGAAATAGACAAAATGCATCTATTCATTTTTCTTT | 0.283 |
| AGATGGCCAACTGGCACTTTTATAATTTTTAAAAGAGCTGACAATTAAAAAGATGTGGGATGGGGGAAAATAAAGAGAATTCCTCCCTAAAAAAGTAATCTAGTACTAATTTTTTTATTATTTGGGTGATCAGTGCTAATCAGATTGACTTTATTTGGAGGCCCTGAGAACCACATGGTACCAAAAATCCAGA | 0.0708 |
| GGACACAGCCAGAGGCCATGAGTGCTCAGGAGTGCCATAAACTGTGATTTTGAGACTGATAAGGCCCTGGGTGTGTCAGGCTAAATAGCTTGTTGTTTGCCTTTTTATATTTGAGGCCTATAAAAAAATAGTGAGAAAATAGCAAGATGCCCAGGAGACAGGTGATCTGATTCAGCCAGGGGGTGGGAGGTGG | 0.0783 |
| TTATGATCTGAGTATATATAGTAAGTACCTCCCCTTTCAGGGTAAGGCAGTAGGTAATGGTGAAAAGGTGACTCACAGGGAAGCAAGGTTGAGTAAACAACACCAAGCATATCTGACTCAAGGAATGCTTCAGAGGCCAGGGGTGCATGCCTGTAATCCCAGCACCTTGGAAGGCTGACACAGGAGGATCACT | 0.353 |
| GAGCTGCTTGCAATTGAGTTGTATGTATGCTTCCACTTAATACGTCCTGCCGAGCCTGTAAGCCAACACTACGGGCCAGGAATCTGCCCTCTGTGTTTACCTACTCTCTTTTTATGTCTTATTCCCAGAATGACTGGGGACCAAAGGAATCCTTTGCAGGAGTTTTCTCCAGACAGACAGTTCCACATGCTAG | 0.248 |
| ATGTGCTAAAAATACAAGACTTGCTTACGCAGAGAGCCGGGAGCTATGTTCCAGTGAGGGTGGAAACAAAAGCCTCAGTATAAGACTGTCAGGTGTTTACACTTGCTCATGTAAGGGTGTGGTGGCAACACGAGGTTGCTGGACTCCACATGCTGAGGCTCAAAGTAGAAATCACTGATCTTATGTCACATAT | 0.221 |
| TTAAAACACACCACCTACATATTTCACATGAGTGAACCAGGATGAATGAATGGATGTTTGCAAGCACCCCAGGGTCCAGGAGGTGAAGTTATGCAAACATCAGTTGTTGTTATATCACCCTCTGCCCTTGGCTAAGGGCCAATATCAACAAGTTCTCTTTTTCCCATCTGCCTTAGAGTTTTCCATGAAGATT | 0.335 |

Sample 3 — technique: protein-binding microarray; form: double-stranded DNA, one strand shown; matrix: in vitro; tested at: 0.8 µM; notes: whole 60-bp probe, no competitor; direction: higher = stronger binding; all sequences stand within: … GTCTTGATTCGCTTGACGCTGCTG
Target: Centromere-binding protein 1, full length, N-terminal tag (CBF1, Saccharomyces cerevisiae, UniProt P17106, residues 1-351)
UniProt P17106, sequence (whole entry, looked up): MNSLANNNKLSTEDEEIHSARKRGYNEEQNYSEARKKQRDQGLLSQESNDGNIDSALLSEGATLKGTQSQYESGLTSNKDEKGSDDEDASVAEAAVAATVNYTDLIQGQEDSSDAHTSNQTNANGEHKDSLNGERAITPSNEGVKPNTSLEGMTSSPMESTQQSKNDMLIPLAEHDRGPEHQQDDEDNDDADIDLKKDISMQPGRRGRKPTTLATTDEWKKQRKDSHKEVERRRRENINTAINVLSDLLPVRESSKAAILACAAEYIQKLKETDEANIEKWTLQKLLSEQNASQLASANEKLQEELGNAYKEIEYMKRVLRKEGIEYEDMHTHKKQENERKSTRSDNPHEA
| Oligonucleotide | fluorescence intensity [a.u.] |
| --- | --- |
| GAACAACAACCAGCTCACGTTGCTGAACAGCCGTAG | 632 |
| CTATTTCAAAATGATGGTGATGATAAAAATAAGTTC | 609 |
| GAAGCTTAAAAGCCCCTGACGGCTCACCTTAAATAG | 476 |
| CTAATAAGGCGTTAGATGGTGACATAAGGTATGTTC | 502 |
| TGTACGAAGCTATCACGTGGGAGTATAGTAGTTAGG | 10200 |
| CTACTCATCTTCTTTCCCGTGCCGTCGGGTTTATTC | 552 |
| CTAACTGTCTCAAAGCACATGAAGAAGGAAAAATTC | 612 |
| TGTACGAAGCTATTTTTCCACGTTATAGTAGTTAGG | 555 |

Sample 4 — technique: protein-binding microarray; form: double-stranded DNA, one strand shown; matrix: in vitro; tested at: not given; direction: higher = stronger binding
Target: Hepatocyte nuclear factor 3-beta, forkhead domain (FOXA2, Homo sapiens, UniProt Q9Y261, residues 142-269)
Notes: k-mer, scored over probes, only values ≥0.25
Target sequence (chain): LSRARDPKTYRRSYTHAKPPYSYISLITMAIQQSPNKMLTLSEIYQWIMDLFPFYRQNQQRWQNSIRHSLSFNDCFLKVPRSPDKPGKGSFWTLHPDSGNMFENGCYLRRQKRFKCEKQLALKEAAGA
| Oligonucleotide | E-score |
| --- | --- |
| TTACTCAA | 0.263 |
| ATTACTAC | 0.279 |
| ATGCATCA | 0.335 |
| AAGTATGT | 0.317 |
| AGAAATAT | 0.295 |
| TTGACAAA | 0.27 |
| ACATACGA | 0.265 |
| AATGTTTA | 0.282 |

Single results of other studies
| Molecule | target | test | system | setting | how to read | quantity | value |
| --- | --- | --- | --- | --- | --- | --- | --- |
| PhoQ, residues 284 288 289 292 302 303 TNSAEL | PhoP, residues 12 14 15 18 19 IQSYL (Escherichia coli, UniProt P23836) | Sort-seq, measured: YFP reporter | E. coli | PhoQ-PhoP variant library, added: 10 µM Mg2+ | baseline: high Mg2+ state, higher = stronger signaling | fold induction | 18.5 |

Excerpt of the above (sample 1):
| Substitution | normalised enrichment score |
| --- | --- |
| TSVNRALFTGGSD [R4N] | 6.57 |
| TSVRRAVFTGGSD [L7V] | 1.15 |
| TSVRRALFTPGSD [G10P] | 7.93 |
| TSVVRALFTGGSD [R4V] | 6.85 |
| TTVRRALFTGGSD [S2T] | 8.29 |
| TSVRRALFDGGSD [T9D] | 7.66 |
